Measured values of several laboratories.
“And” joins repeats or separate records; there may be more than shown. ± gives the spread as reported.

CC[C@H](C)[C@H](NC(=O)[C@H](CCCNC(=N)N)NC(=O)[C@H](CCCCN)NC(=O)[C@H](Cc1ccc(O)cc1)NC(=O)[C@H](CC(=O)O)NC(=O)[C@H](C)NC(=O)CNC(=O)CCOCCOCCOCCNC(=O)CN1CCN(CC(=O)O)CCN(CC(=O)O)CCN(CC(=O)O)CC1)C(=O)N[C@H](C(=O)N[C@@H](CC(C)C)C(=O)N[C@@H](CCCCN)C(=O)N[C@H](C(=O)N[C@@H](CC(N)=O)C(N)=O)C(C)C)[C@@H](C)O [copper-64 labelled] — tissue uptake (ex vivo gamma counting; C57BL/6J male mice, B16-F10 tumour, thymus; intravenous, 1.85 MBq, 100 min): 0.496 ± 0.132 %ID/g
CC(C)C[C@@H](NC(=O)[C@@H](CCCNC(=N)N)NC(=O)[C@@H](Cc1c[nH]cn1)NC(=O)[C@@H](Cc1c[nH]c2ccccc12)NC(=O)[C@@H](Cc1c[nH]cn1)NC(=O)[C@@H](Cc1ccccc1)NC(=O)[C@H](NC(=O)[C@@H](Cc1ccc(O)cc1)NC(=O)CNC(=O)CNC(=O)CCOCCOCCOCCNC(=O)CN1CCN(CC(=O)O)CCN(CC(=O)O)CC1)[C@H](C)O)C(=O)N[C@H](CC(N)=O)C(=O)N1CCC[C@@H]1C(=O)O [gallium-68 labelled] — tissue uptake (C57BL/6 mice, male, liver; intravenous, 1.85 MBq, 60 min, with: GP12 blocking): 1.08 ± 0.16 %ID/g
CCCC[C@H]1C(=O)N(C)[C@@H](CCCC)C(=O)N[C@@H](CCCNC(=O)CN2CCN(CC(=O)O)CCN(CC(=O)O)CCN(CC(=O)O)CC2)C(=O)N[C@H](C(=O)NCC(N)=O)CSCC(=O)N[C@@H](Cc2ccc(O)cc2)C(=O)N(C)[C@@H](C)C(=O)N[C@@H](CC(N)=O)C(=O)N2CCC[C@H]2C(=O)N[C@@H](Cc2c[nH]cn2)C(=O)N[C@@H](CC(C)C)C(=O)N(C)CC(=O)N[C@@H](Cc2c[nH]c3ccccc23)C(=O)N[C@@H](CO)C(=O)N[C@@H](Cc2c[nH]c3ccccc23)C(=O)N1C [gallium-68 labelled] — tissue uptake (NOD/SCID mice, CHO-hPD-L1 xenograft, brain; 60 min, atezolizumab 10 mg/kg pretreatment): 0.39 ± 0.04 %ID/g
Cc1ccc(OCCN(C)C)cc1C(=O)N[C@H](C)c1cc(-c2ccco2)nc2ccccc12 — viability (Vero E6; 31.25 µM): 27.1% and 35%
CSCC[C@H](NC(=O)CNC(=O)[C@H](CCCCN)NC(=O)[C@H](CC(C)C)NC(=O)[C@@H]1CCCN1C(=O)[C@H](CO)NC(=O)[C@H](Cc1c[nH]cn1)NC(=O)[C@H](Cc1c[nH]c2ccccc12)NC(=O)[C@H](CCCNC(=N)N)NC(=O)[C@H](CC(C)C)NC(=O)[C@H](CCCNC(=N)N)NC(=O)[C@H](Cc1c[nH]c2ccccc12)NC(=O)[C@H](CS)NC(=O)CCCCCNC(=O)CN1CCN(CC(=O)O)CCN(CC(=O)O)CCN(CC(=O)O)CC1)C(=O)O [copper-64 labelled] — tissue uptake (ex vivo biodistribution; BALB/c nude mice, stomach; intravenous, dose not given, 2 h, Huh-7 tumour-bearing): 2.25 %ID/g
Cc1ccc(OCCN(C)C)cc1C(=O)N[C@H](C)c1cc(-c2cnn(C3CNC3)c2)nc2ccccc12 — viability (Vero E6; 15.62 µM): 99.6% and 105%
CC[C@H](C)[C@H](NC(=O)[C@H](CCCCN)NC(=O)CNC(=O)[C@H](CC(C)C)NC(=O)[C@H](Cc1ccccc1)NC(=O)[C@H](CCCCN)NC(=O)[C@H](CO)NC(=O)[C@H](Cc1ccccc1)NC(=O)[C@H](Cc1c[nH]c2ccccc12)NC(=O)[C@H](CCC(N)=O)NC(=O)[C@@H](NC(=O)[C@H](Cc1ccccc1)NC(=O)CCCCCNC(=O)CN1CCN(CC(=O)O)CCN(CC(=O)O)CCN(CC(=O)O)CC1)C(C)C)C(=O)N[C@@H](CCC(=O)O)C(=O)N1CCC[C@H]1C(=O)N[C@@H](CC(=O)O)C(=O)N[C@H](C(=O)N[C@@H](CO)C(=O)N[C@@H](CCC(N)=O)C(=O)N[C@H](C(=O)N[C@@H](CCC(N)=O)C(=O)N[C@@H](CC(=O)O)C(=O)N1CCC[C@H]1C(=O)N[C@@H](CC(N)=O)C(=O)N[C@@H](CC(=O)O)C(=O)N[C@@H](CCC(N)=O)C(=O)N[C@@H](Cc1ccc(O)cc1)C(=O)N[C@@H](CCC(=O)O)C(=O)N1CCC[C@H]1C(=O)N[C@@H](Cc1ccccc1)C(=O)O)C(C)C)C(C)C [copper-64 labelled] — tissue uptake (GZMB-/- mice, CT26 tumour-bearing, heart; 2 h, checkpoint inhibitor-treated): 0.81 ± 0.4 %ID/g
CC[C@H](C)[C@H](NC(=O)[C@H](CCCNC(=N)N)NC(=O)[C@H](CCCCN)NC(=O)[C@H](Cc1ccc(O)cc1)NC(=O)[C@H](CC(=O)O)NC(=O)[C@H](C)NC(=O)CNC(=O)CCOCCOCCOCCNC(=O)CN1CCN(CC(=O)O)CCN(CC(=O)O)CCN(CC(=O)O)CC1)C(=O)N[C@H](C(=O)N[C@H](C(=O)N[C@@H](CCCCN)C(=O)N[C@H](C(=O)N[C@@H](CC(N)=O)C(N)=O)C(C)C)C(C)C)[C@@H](C)O [copper-64 labelled] — tissue uptake (C57BL/6J mouse male, B16-F10 tumour, small intestine; intravenous, 1.85 MBq, 20 min, 67Ga complex): 2.63 ± 0.396 %ID/g
C[C@H](O)[C@@H](NC(=O)[C@H]1CCCN1C(=O)[C@@H](CCCCN)NC(=O)[C@@H](CO)NC(=O)[C@@H](Cc1ccc(O)cc1)NC(=O)[C@@H](CC(N)=O)NC(=O)CCOCCOCCOCCNC(=O)CN1CCN(CC(=O)O)CCN(CC(=O)O)CCN(CC(=O)O)CC1)C(=O)N[C@H](CC(=O)O)C(=O)N[C@H](CCCNC(=N)N)C(=O)N[C@H](CCC(N)=O)C(=O)N[C@H](Cc1ccc(O)cc1)C(=O)N[C@H](Cc1c[nH]cn1)C(=O)N[C@H](Cc1ccccc1)C(N)=O [gallium-68 labelled] — tissue uptake (BALB/c nude mice U-87 MG tumour, liver; intravenous, 1.85 MBq, 0.08333 h, radiolabelled): 1.06 ± 0.26 %ID/g
O=C1NC2(CC2)COc2ncc(F)cc2[C@H]2COCCN2c2ccn3ncc1c3n2 — organ-to-brain weight ratio (Sprague-Dawley rat, male, adrenals; oral, 20 mg/kg/day, 4 weeks, end of treatment): 2.93 ± 0.22%
CC[C@H](C)[C@H](NC(=O)[C@@H](Cc1c[nH]c2ccccc12)NC(=O)[C@@H]1CCCN1C(=O)[C@H](CCCCN)NC(=O)[C@H](CCCCN)NC(=O)CCNC(=O)CCNC(=O)CN1CCN(CC(=O)O)CCN(CC(=O)O)CCN(CC(=O)O)CC1)C(=O)N[C@@H](C[Si](C)(C)C)C(=O)O [gallium-68 labelled] — tissue uptake (ex vivo biodistribution; nude mice, HT-29 xenograft, spleen; 90 min, with: levocabastine 0.5 µmol): 0.69 ± 0.04 %ID/g
CN1Cc2cc(Cl)ccc2-n2c(nnc2C2CCN(c3cccc([18F])n3)CC2)C1 — tissue uptake (C57BL/6 mouse male, testis; intravenous, 3.7 MBq, 30 min): 1.37 ± 0.35 %ID/g

A few entries again:
CN1Cc2cc(Cl)ccc2-n2c(nnc2C2CCN(c3cccc([18F])n3)CC2)C1 — tissue uptake (C57BL/6 mouse male, testis; intravenous, 3.7 MBq, 30 min): 1.37 ± 0.35 %ID/g
